# Assay results from different studies.
# “And” joins repeats or separate records; there may be more than shown. Numbers after ± are the reported error.
# Uncharacterized hydrolase SAUSA300_2518: Uncharacterized hydrolase SAUSA300_2518 (Staphylococcus aureus, UniProt Q2FDS6)
# Chain of UniProt Q2FDS6 (whole entry, looked up): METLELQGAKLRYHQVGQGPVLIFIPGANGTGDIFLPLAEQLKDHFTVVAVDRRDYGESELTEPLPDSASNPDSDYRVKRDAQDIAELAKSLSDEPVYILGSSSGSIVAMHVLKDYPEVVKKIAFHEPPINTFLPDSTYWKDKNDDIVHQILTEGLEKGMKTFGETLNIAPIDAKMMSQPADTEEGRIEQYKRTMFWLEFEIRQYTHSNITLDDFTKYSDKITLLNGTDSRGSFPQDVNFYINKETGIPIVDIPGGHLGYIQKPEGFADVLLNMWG
# Chain of UniProt P23443 (whole entry, looked up): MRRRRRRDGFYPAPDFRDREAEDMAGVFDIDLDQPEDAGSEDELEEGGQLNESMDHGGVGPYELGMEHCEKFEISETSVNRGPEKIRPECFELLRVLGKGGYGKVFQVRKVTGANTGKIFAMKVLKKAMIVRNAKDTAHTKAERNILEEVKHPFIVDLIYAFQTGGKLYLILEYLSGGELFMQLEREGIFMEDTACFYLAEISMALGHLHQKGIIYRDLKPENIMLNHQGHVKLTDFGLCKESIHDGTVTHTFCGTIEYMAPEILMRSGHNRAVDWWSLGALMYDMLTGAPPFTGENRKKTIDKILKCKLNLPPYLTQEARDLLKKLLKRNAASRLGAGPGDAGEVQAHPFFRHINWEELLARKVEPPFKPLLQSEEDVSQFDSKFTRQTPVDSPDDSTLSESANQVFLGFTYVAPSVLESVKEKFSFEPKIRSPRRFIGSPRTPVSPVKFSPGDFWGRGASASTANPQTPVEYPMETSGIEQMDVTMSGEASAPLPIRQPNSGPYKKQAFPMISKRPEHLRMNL
# Chain of UniProt Q6PJP8 (whole entry, looked up): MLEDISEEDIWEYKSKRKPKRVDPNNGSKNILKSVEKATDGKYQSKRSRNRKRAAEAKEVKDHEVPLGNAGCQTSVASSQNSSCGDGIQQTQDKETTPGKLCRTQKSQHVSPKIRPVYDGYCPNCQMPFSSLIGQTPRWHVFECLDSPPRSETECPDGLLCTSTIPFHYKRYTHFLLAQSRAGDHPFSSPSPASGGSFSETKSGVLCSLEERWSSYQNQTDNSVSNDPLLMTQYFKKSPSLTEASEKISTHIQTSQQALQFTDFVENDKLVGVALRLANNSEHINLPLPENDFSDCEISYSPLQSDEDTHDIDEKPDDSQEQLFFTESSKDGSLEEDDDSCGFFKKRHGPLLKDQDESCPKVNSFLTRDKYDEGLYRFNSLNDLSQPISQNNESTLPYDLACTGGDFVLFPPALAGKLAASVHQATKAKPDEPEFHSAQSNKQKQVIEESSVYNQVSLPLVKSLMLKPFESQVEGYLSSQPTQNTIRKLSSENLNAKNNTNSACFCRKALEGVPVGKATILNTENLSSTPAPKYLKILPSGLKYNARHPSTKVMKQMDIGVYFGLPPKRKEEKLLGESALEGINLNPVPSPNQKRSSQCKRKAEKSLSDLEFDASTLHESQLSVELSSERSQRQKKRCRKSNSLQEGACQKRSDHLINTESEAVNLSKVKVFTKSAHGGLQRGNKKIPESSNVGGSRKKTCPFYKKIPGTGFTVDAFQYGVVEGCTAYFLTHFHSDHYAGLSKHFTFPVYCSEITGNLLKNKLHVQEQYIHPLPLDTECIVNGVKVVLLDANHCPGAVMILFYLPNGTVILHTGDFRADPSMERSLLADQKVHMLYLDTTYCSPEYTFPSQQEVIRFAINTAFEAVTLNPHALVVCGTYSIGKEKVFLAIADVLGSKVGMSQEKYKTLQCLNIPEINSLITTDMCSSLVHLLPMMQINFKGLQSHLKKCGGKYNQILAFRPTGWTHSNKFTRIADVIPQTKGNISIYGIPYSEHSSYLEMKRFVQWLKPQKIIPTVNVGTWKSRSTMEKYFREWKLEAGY
# Chain of UniProt P54578 (whole entry, looked up): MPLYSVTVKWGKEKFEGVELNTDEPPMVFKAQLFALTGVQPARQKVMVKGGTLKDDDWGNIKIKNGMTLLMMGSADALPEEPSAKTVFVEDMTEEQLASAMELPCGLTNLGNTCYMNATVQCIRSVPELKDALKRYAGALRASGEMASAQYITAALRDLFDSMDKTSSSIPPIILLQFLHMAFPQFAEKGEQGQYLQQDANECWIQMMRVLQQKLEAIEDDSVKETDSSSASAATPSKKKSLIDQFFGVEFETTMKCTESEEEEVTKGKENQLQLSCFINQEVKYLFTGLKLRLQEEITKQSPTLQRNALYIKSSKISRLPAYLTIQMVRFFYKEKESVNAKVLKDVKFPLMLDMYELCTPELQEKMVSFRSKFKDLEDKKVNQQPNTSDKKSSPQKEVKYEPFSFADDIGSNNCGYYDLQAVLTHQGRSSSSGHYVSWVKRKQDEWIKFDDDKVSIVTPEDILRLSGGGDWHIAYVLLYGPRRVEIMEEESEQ
# Chain of UniProt P53350 (whole entry, looked up): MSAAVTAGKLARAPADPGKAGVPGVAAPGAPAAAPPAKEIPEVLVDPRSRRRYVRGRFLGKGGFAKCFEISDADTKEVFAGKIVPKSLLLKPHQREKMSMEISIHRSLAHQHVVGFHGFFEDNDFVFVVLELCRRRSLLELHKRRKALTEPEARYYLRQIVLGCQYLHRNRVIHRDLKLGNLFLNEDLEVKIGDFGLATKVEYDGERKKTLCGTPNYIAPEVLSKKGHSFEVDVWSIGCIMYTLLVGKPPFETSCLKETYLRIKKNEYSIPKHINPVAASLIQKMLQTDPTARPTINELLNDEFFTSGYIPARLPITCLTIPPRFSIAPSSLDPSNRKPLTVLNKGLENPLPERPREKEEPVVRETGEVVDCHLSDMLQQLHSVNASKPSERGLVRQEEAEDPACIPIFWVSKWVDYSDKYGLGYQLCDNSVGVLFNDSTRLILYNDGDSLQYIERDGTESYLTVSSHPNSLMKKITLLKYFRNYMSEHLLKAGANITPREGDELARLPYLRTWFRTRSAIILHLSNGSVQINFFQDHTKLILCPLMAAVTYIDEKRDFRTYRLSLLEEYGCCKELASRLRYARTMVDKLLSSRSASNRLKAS
# Chain of UniProt P16277 (whole entry, looked up): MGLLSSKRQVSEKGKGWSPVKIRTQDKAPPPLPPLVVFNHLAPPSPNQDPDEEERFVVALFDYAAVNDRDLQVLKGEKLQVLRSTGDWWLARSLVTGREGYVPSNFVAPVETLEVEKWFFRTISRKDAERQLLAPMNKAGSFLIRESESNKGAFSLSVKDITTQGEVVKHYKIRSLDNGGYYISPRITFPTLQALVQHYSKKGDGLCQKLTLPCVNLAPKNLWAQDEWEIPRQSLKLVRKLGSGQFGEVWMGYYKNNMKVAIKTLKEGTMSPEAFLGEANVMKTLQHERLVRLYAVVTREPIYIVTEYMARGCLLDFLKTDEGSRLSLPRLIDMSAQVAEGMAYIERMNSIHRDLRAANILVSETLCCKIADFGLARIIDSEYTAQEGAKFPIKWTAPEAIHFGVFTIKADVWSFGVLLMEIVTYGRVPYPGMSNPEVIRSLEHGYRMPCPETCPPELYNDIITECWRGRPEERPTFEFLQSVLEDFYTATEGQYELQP
Compound,target or system,assay,test system,setting,scale,measurement,value
N#CCC(=O)c1ccccc1,"Genome polyprotein, 3C protease (Enterovirus D68, UniProt A1E4A3)","protease activity, FRET",,"19 µM, fragment alone",,remaining activity,86.7 ± 5.5%
CC(C)[C@H]1NC(=O)C[C@H]2/C=C/CCSSC[C@@H](NC1=O)C(=O)N[C@H](Cc1cccc3ccccc13)C(=O)NCC(=O)O2,"Protein kinase C gamma type (PRKCG, Homo sapiens, UniProt P05129)","enzyme activity, inhibitor",,10 µM,,inhibition,-2.5%
NC(Cc1cc(O)c(O)cc1O)C(=O)O (racemic),"DNA cross-link repair 1A protein (DCLRE1A, Homo sapiens, UniProt Q6PJP8)","exonuclease activity, inhibitor, fluorescence HTS",,"10 µM, 80 min, added: 8 nM 5P-FQ substrate",,remaining activity,42.7%
O=C1NC2(CC2)COc2ncc(F)cc2[C@H]2COCCN2c2ccn3ncc1c3n2,,,"Sprague-Dawley rat, male, brain","oral, 20 mg/kg/day, 4 weeks dosing, end of recovery",,organ-to-body weight ratio,0.458 ± 0.04%
O=S(=O)(F)c1cccc2c1OCC2,Uncharacterized hydrolase SAUSA300_2518,"enzyme activity, inhibitor, fluorogenic substrate",,50 µM,,remaining activity,108% and 102%
Cc1cc(Oc2nc(N3CC[C@@H](c4ccncc4)C3)ncc2F)[nH]n1,PANC-1,cell proliferation,pancreas cancer,,,IC50,79.4 µM
CC(C)(C)C(=O)OCOP(=O)(OCOC(=O)C(C)(C)C)C1CCCN(O)C1=O (stereo not shown),DU-145,,,,,GI50,0.831 µM
[CH3][Ti+2][O]C(=O)c1ccc([S][Au][PH](c2ccccc2)(c2ccccc2)c2ccccc2)cc1.c1cc[cH-]c1.c1cc[cH-]c1,"Ribosomal protein S6 kinase beta-1 (RPS6KB1, Homo sapiens, UniProt P23443)","kinase activity, HotSpot radiometric",,"1 µM, added: ATP 10 µM",reference: vehicle,remaining activity,98.4% and 99%
O=C(Nc1ccncc1)c1ccccc1OS(=O)(=O)F,Uncharacterized hydrolase SAUSA300_2518,"enzyme activity, inhibitor, fluorogenic substrate",,0.1 µM,,remaining activity,86.6% and 95.1% and 84.6%
Cc1ccc(C)c(-c2ccc3nc(NC(=O)C4CCCCC4)nn3c2)c1,"Serine/threonine-protein kinase PLK1 (PLK1, Homo sapiens, UniProt P53350)",enzyme activity,,10 µM,,remaining activity,62%
Cc1ccc(N2CC3CCC(C2)N3C)cc1C(=O)N[C@H](C)c1cc(-c2cnn(C)c2)nc2ccccc12,"Ubiquitin carboxyl-terminal hydrolase 14 (USP14, Homo sapiens, UniProt P54578)",enzyme activity,,10 µM,,remaining activity,98.5%
CN1CCCN(C(=O)c2ccc(S(=O)(=O)F)cc2)c2ccccc21,Uncharacterized hydrolase SAUSA300_2518,"enzyme activity, inhibitor, fluorogenic substrate",,0.01 µM,,remaining activity,117% and 114%
O=C1NC(=O)c2c1c1cc(F)c[n+]3c1c1c2c2cc(O)ccc2[n]1[Ru-4]312([N]=C=S)[S+]3CC[S+]1CC[S+]2CC3 (stereo not shown),"Tyrosine-protein kinase Blk (Blk, Mus musculus, UniProt P16277)",enzyme activity,,"100 nM, mouse enzyme, added: 10 µM ATP",reference: untreated,remaining activity,8%

# A few entries again:
Compound,target or system,assay,test system,setting,scale,measurement,value
Cc1ccc(C)c(-c2ccc3nc(NC(=O)C4CCCCC4)nn3c2)c1,"Serine/threonine-protein kinase PLK1 (PLK1, Homo sapiens, UniProt P53350)",enzyme activity,,10 µM,,remaining activity,62%
[CH3][Ti+2][O]C(=O)c1ccc([S][Au][PH](c2ccccc2)(c2ccccc2)c2ccccc2)cc1.c1cc[cH-]c1.c1cc[cH-]c1,"Ribosomal protein S6 kinase beta-1 (RPS6KB1, Homo sapiens, UniProt P23443)","kinase activity, HotSpot radiometric",,"1 µM, added: ATP 10 µM",reference: vehicle,remaining activity,98.4% and 99%
